Measurements pooled from the literature.
Numbered parts are unrelated; each lists some results of a single study.

Set 1 — method: aptamer microarray, sandwich; form: DNA with 2'F-ANA; sample: in vitro; concentration: 200 nM; together with: Cy3 exosite-II aptamer, 400 nM; reading: higher = stronger binding; strand: GGTTGGTGTGGTTGG
Target: Prothrombin, mature alpha-thrombin (F2, Homo sapiens, UniProt P00734)
Setting: whole 15-mer aptamer, many near background
`2'F-ANA at 1 3 4 6 7 13 15` — result for “mean fluorescence intensity”: 148 a.u.
Under “mean fluorescence intensity”, `2'F-ANA at 1 2 4 5 6 8 9 10 11 12 13 15` is recorded as 48 a.u.
`2'F-ANA at 2 3 4 5 7 9 13 14 15`: “mean fluorescence intensity” 137 a.u.
For `2'F-ANA at 1 7 8 10 12 13 15`, “mean fluorescence intensity” read 76.6 a.u.
`2'F-ANA at 1 2 3 5 6 7 13 14 15`: “mean fluorescence intensity” 47.5 a.u.
`2'F-ANA at 2 5 8 10 13 15` — result for “mean fluorescence intensity”: 52.9 a.u.
`2'F-ANA at 1 3 5 8 11 12 14 15` — result for “mean fluorescence intensity”: 46.8 a.u.
For `2'F-ANA at 2 8 11 12 13 14 15`, “mean fluorescence intensity” read 161 a.u.
`2'F-ANA at 2 5 7 9 11 13 14`: “mean fluorescence intensity” 43.9 a.u.
Under “mean fluorescence intensity”, `2'F-ANA at 3 7 10 11 12 13 15` is recorded as 590 a.u.
`2'F-ANA at 1 2 4 5 6 7 9 10 15` — result for “mean fluorescence intensity”: 49.6 a.u.
`2'F-ANA at 1 2 6 7 10 12 13` — result for “mean fluorescence intensity”: 60.8 a.u.
Under “mean fluorescence intensity”, `2'F-ANA at 1 3 5 7 8 9 10 11 14 15` is recorded as 45.1 a.u.
`2'F-ANA at 1 2 3 4 8 10 12 15`: “mean fluorescence intensity” 79.6 a.u.
`2'F-ANA at 2 3 4 7 9 11` — result for “mean fluorescence intensity”: 533 a.u.
For `2'F-ANA at 1 2 4 6 7 11 13`, “mean fluorescence intensity” read 69.9 a.u.
`2'F-ANA at 4 5 7 8 10 12 13 14`: “mean fluorescence intensity” 45.6 a.u.
`2'F-ANA at 1 8 9 12 14`: “mean fluorescence intensity” 68.5 a.u.
`2'F-ANA at 2 3 5 8 9 12 13 14 15`: “mean fluorescence intensity” 115 a.u.
Under “mean fluorescence intensity”, `2'F-ANA at 4 6 7 9 10 12 13 15` is recorded as 81.3 a.u.

Set 2 — method: protein-binding microarray; form: double-stranded DNA, one strand shown; sample: in vitro; concentration: 2200 nM top; setting: 60-bp whole probe; together with: salmon DNA 0.4 mg/ml; reference: random background probes; reading: higher = stronger binding; constant ends, left off below: GCCTAGCAC … GTCTTGATTCGCTTGACGCTGCTG
Target: Interferon regulatory factor 7, full length, phosphomimetic (IRF7, Homo sapiens, UniProt Q92985, residues 1-503, S471D/S472D/S475D/S476D/S477D/S483D/S484D/S487D)
Chain of UniProt Q92985 (whole entry, unmodified, looked up): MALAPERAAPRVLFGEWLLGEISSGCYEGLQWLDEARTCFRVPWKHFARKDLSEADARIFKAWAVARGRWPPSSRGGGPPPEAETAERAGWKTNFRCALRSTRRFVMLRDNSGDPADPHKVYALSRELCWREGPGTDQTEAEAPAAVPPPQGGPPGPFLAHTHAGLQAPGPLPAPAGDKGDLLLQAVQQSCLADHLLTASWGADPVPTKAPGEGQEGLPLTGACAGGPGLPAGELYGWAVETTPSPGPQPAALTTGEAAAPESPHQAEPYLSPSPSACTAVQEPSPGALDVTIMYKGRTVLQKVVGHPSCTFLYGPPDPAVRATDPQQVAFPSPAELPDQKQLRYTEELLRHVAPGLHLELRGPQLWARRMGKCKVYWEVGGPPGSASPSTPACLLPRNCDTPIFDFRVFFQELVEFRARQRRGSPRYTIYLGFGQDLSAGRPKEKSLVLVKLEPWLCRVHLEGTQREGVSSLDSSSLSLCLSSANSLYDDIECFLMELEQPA
Under “fitted relative affinity”, `TTAGAACTGAGTCTCGATTAGTGCTAG` is recorded as -0.212 z-score.
For `GACGGTATCTTTCTCCTGACGTGCTAG`, “fitted relative affinity” read 1 z-score.
For `TCAAGTCTGGGCTACAACTTGGTGCTA`, “fitted relative affinity” read -0.413 z-score.
`GACGATCACAGTTTCGAGACGTGCTAG`: “fitted relative affinity” 2.92 z-score.
`GATGGACTGGGTTTCGGGACGTGCTAG` — result for “fitted relative affinity”: 1.37 z-score.
Under “fitted relative affinity”, `GACGATCTCACACTGGAGACGTGCTAG` is recorded as 0.361 z-score.
For `TTAGATATCGGTTATCGATTAGTGCTA`, “fitted relative affinity” read 0.334 z-score.
`TGCTGGTTTTGTGGTCTAATGTGCTAG` — result for “fitted relative affinity”: 0.843 z-score.
`TTAGGTATCGGGTTTTGGTTAGTGCTA` — result for “fitted relative affinity”: 1 z-score.
Under “fitted relative affinity”, `GACGCACTGGGGTTTCGAGACGTGCTA` is recorded as 0.942 z-score.
For `TCATTTTGAGTTTTCCTACTGTGCTAG`, “fitted relative affinity” read 2.32 z-score.
`GACGGCCTCGGACTGGGGACGTGCTAG`: “fitted relative affinity” -0.882 z-score.
`TCATTATTTATTTTTACACTGTGCTAG`: “fitted relative affinity” 1.07 z-score.
`GATGATATCGGGTTTCGAGACGTGCTA`: “fitted relative affinity” 1.59 z-score.
`GAGGGTTTCGGGTTTCGGGACGTGCTA` — result for “fitted relative affinity”: 6.74 z-score.
`TTAGATATCTGGTTTCGATTAGTGCTA`: “fitted relative affinity” 4.21 z-score.
Under “fitted relative affinity”, `CCTAGCCTCCCAGCCCAGCAGTGCTAG` is recorded as -0.82 z-score.
`TCAAAACTCTTTATTTAACTGTGCTAG`: “fitted relative affinity” -0.274 z-score.
`AGGACCATCTCATATAAATAGGTGCTA`: “fitted relative affinity” -0.319 z-score.
`GACGGTTACGGGTTTCGGGACGTGCTA` — result for “fitted relative affinity”: 1.79 z-score.
`GACGGTCTCGGACAGGGGACGTGCTAG`: “fitted relative affinity” -0.388 z-score.

Set 3 — method: protein binding microarray; form: double-stranded DNA, one strand shown; sample: in vitro; concentration: not given; reference: not given; reading: higher = stronger binding
Target: Histone acetyltransferase KAT6A, winged helix 1, GST fusion (KAT6A, Homo sapiens, UniProt Q92794, residues 1-85)
Setting: 8-mer, flanks averaged, mean of 2 arrays, mostly near background
Construct (chain): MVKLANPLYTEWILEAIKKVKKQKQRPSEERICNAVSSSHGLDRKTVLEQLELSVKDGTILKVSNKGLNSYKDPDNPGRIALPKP
With `CAATTATG` the E-score was 0.209.
`CGTTTTCA` gave an E-score of 0.056.
With `CATAACAG` the E-score was -0.0779.
The E-score of `CTCGACAA` is reported as -0.176.
For `ATTATTAA`, the E-score was -0.0148.
With `GACCCAGA` the E-score was -0.067.
The E-score of `CGATCGCG` is reported as 0.368.
For `GATCCAAA`, the E-score was -0.209.
`GAGTTTAA` has an E-score of -0.226.
`GACGAGTA` has an E-score of -0.0536.
For `TGACCCCA`, the E-score was -0.27.
`CGTCCACG` has an E-score of 0.243.
The E-score of `AAGTAGAG` is reported as -0.243.
The E-score of `ATTTGATG` is reported as -0.218.
The E-score of `AGACGGTG` is reported as -0.00449.
For `ACTAGAAC`, the E-score was -0.0143.

Set 4 — method: RNA Bind-n-Seq; form: RNA; sample: in vitro; concentration: not given; reference: input RNA pool; reading: higher = stronger binding
Target: RING finger protein unkempt homolog, zinc fingers 1-6, GST-SBP tag (UNK, Homo sapiens, UniProt Q9C0B0, residues 30-357)
Setting: RNA with constant flanks, human and mouse sites, ends assumed
Target sequence (chain): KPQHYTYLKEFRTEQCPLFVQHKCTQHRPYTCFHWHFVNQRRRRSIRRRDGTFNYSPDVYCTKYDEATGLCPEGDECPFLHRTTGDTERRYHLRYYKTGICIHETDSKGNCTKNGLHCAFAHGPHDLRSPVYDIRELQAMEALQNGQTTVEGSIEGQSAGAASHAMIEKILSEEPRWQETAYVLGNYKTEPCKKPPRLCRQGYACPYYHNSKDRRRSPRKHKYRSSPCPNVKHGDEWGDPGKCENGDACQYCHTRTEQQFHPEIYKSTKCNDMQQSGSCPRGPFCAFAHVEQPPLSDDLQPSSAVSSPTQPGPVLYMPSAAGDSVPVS
The bound/input enrichment of `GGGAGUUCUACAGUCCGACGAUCCUAGCAGAGAUAACCCUUGAUCCUCCUCCUAACUGCAGUGCUGGGCCUAAAGGAGAUAACAUUUAUGAAUGGAGGUCAACUAUACUUGGUCCACCAGGUUCUGUAUAUGAAGGUGGUGUUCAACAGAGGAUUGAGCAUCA` is reported as 0.343 ratio.
The bound/input enrichment of `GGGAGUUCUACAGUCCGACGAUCAGUGCAGAAGGGGACAGUCAGAUUGGUACUGUGGUAGAGCAUGUGGAAGCUGAGGCUGGAGCUGCCAUCAUGAAUGCAAAUGAAAAUAAUGUUGACAGCAUGAGUGGCACAGAGAAAGGACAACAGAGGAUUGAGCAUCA` is reported as 0.243 ratio.
For `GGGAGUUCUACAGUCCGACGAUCACACUUUGCGGUAGAUUAAGGAAUAUACUGCAUAUUUCUUUUUUUAAACUCGGGAUAUUGAACUUCAGAAAACAAAUAUUAGCACAAAACACUAAAAUAGUGUUAACAAAAGGAGAUAUUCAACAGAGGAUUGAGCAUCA`, the bound/input enrichment was 1.45 ratio.
`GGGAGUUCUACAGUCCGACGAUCGACCUCGCCGAGGCUGGAGGCCGAGCUCUGCAGAGCUUACAAUUGAGACUGCUAACCCCUACCUUUGAAGGGAUCAACGGAUUGUUGUUGAAACAACAUUUAGUUCAGAAUCCAGUCAGACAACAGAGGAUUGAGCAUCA` has a bound/input enrichment of 0.0683 ratio.
The bound/input enrichment of `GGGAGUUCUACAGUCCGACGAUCAUUCUAACGAUGAUUCCCACCGAUGAGGAGAAGCAGAAAAUCCAGGAAGCUCAGCUGGCCAACCCUGAAAUCCCCCUGGGCAGUGCAGAGCAGUUCCUCCUCACCCUGUCCUCCAUCAGCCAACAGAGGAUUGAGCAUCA` is reported as 0.142 ratio.
`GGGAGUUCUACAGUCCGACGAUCAGACCAGAAACCAUGUUGUGAUUUCUUUUUAUCUUAGAAAACAUUUCUAUUUACAAUAAAUAGUUACUAUGUAAAUAAUGUACAUAUGUAUUAAUUUCUUCAGUGUUAUACAAUGUAUAUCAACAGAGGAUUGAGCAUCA` has a bound/input enrichment of 4.72 ratio.
The bound/input enrichment of `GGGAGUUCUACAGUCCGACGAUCCCUCCACCAAAUGCAGAUCCUAAUAUGAAGUUAUUUACAAUUCGUGGCACUCCACAACAGAUAGACUAUGCUCGGCAACUCAUAGAAGAAAAGAUUGGUGGCCCAGUAAAUCCUUUAGGGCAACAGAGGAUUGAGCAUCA` is reported as 2.26 ratio.
`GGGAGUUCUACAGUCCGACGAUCGCUUUUUAUCUUCUAGCAUUUUUUUACUACCUAUAUGGCAUGAUCUAUGUUUUGGUGAGCUCUUAGAACAACACACAGAAGAAUUGGUCCAGUUAAGUGCAUGCAAAAAGCCACCAAAUGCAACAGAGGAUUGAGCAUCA` has a bound/input enrichment of 4.38 ratio.
The bound/input enrichment of `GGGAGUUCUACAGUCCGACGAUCCUAGGAGAGUCAAGUAAGAAAAAUAACGAAUCUAAGUGAUAAACAUUCAAGAAAUUCUCUAAAUAAGAGAUUUAUUUAUAAUUUUAAUAUCUCAGGGUUCUUUUUAGGUUUCCAGGGGAACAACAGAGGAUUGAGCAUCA` is reported as 0.827 ratio.
`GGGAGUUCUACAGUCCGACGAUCGAGGAAGAGGAGGAGGAGAGCCCCGACACAGGUGGAGAAUAUAAAUAUUCAGGAAGAGAUAGCUUGAUUUUUCUGGUUGAUGCCUCCAGGGCUAUGUUCGAAUCUCAGGGUGAAGAUGAACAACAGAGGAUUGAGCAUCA` gave a bound/input enrichment of 0.439 ratio.
With `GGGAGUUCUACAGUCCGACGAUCAGGGAUAAAGUAAUUCCUAAUAAAGUGGGGACAUAUUGUAUCCAGUUUGGUUUUAUGAUGGAUAAAACAAAUAUUCUCAACAGUGAACAGGUUAUAGUUGAAGUCCUGCCUAAUCAACCUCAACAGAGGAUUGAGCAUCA` the bound/input enrichment was 0.0943 ratio.

Other studies, line by line
`PhoQ, residues 284 288 289 292 302 303 TYGVAM` gave a fold induction of 10.8 (PhoP, residues 12 14 15 18 19 SYFRT (Escherichia coli, UniProt P23836); Sort-seq, item: YFP reporter; E. coli; PhoQ-PhoP variant library, together with: 10 µM Mg2+; reference: high Mg2+ state, higher = stronger signaling).
